Published values gathered from unrelated publications.
± marks the error that the study gave.
CYP2C9: Cytochrome P450 2C9 (CYP2C9, Homo sapiens, UniProt P11712)
Sequence of UniProt P11712 (whole entry, looked up): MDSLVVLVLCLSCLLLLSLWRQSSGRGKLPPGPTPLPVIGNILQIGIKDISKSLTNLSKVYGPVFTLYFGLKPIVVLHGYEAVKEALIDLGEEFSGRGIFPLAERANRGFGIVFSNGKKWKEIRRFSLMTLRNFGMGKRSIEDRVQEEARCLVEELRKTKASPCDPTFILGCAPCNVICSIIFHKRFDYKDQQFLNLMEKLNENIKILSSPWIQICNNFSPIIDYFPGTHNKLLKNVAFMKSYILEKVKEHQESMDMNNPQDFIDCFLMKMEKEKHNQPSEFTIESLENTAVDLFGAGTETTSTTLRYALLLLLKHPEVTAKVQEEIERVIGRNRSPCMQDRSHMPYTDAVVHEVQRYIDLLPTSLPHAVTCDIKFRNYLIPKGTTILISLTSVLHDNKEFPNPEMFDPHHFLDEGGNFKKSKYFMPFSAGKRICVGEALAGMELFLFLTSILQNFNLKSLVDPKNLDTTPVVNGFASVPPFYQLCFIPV
CYP2C19: Cytochrome P450 2C19 (CYP2C19, Homo sapiens, UniProt P33261)
Sequence of UniProt P33261 (whole entry, looked up): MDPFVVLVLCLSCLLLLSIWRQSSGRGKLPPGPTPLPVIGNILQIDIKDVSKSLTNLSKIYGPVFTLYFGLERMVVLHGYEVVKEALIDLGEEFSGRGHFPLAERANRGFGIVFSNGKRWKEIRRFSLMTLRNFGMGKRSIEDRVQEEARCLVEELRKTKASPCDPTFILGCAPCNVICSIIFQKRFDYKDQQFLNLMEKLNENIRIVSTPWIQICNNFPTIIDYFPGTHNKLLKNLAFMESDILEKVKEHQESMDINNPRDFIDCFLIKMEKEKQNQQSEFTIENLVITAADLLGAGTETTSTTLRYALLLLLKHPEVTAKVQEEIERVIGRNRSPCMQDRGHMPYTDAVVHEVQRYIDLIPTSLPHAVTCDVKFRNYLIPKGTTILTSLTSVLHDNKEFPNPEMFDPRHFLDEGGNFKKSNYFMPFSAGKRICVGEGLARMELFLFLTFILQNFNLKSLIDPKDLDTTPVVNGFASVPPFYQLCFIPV
25-hydroxyvitamin D-1 alpha hydroxylase, mitochondrial: 25-hydroxyvitamin D-1 alpha hydroxylase, mitochondrial (Mus musculus, UniProt O35084)
Sequence of UniProt O35084 (whole entry, looked up): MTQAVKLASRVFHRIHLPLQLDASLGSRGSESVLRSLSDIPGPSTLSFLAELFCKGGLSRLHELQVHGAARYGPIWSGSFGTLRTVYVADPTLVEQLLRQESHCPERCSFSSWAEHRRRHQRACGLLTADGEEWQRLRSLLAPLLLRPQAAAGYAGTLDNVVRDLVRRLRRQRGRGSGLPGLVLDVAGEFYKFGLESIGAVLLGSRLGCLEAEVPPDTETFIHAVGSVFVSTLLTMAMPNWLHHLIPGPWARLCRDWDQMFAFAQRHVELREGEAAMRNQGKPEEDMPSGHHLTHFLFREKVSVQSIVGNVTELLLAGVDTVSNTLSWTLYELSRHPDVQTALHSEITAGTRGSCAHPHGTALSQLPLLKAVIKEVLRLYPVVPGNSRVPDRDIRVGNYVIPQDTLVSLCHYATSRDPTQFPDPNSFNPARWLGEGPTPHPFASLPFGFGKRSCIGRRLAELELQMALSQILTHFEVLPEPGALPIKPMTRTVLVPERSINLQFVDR
ABCC1: Multidrug resistance-associated protein 1 (ABCC1, Homo sapiens, UniProt P33527)
Sequence of UniProt P33527 (whole entry, looked up): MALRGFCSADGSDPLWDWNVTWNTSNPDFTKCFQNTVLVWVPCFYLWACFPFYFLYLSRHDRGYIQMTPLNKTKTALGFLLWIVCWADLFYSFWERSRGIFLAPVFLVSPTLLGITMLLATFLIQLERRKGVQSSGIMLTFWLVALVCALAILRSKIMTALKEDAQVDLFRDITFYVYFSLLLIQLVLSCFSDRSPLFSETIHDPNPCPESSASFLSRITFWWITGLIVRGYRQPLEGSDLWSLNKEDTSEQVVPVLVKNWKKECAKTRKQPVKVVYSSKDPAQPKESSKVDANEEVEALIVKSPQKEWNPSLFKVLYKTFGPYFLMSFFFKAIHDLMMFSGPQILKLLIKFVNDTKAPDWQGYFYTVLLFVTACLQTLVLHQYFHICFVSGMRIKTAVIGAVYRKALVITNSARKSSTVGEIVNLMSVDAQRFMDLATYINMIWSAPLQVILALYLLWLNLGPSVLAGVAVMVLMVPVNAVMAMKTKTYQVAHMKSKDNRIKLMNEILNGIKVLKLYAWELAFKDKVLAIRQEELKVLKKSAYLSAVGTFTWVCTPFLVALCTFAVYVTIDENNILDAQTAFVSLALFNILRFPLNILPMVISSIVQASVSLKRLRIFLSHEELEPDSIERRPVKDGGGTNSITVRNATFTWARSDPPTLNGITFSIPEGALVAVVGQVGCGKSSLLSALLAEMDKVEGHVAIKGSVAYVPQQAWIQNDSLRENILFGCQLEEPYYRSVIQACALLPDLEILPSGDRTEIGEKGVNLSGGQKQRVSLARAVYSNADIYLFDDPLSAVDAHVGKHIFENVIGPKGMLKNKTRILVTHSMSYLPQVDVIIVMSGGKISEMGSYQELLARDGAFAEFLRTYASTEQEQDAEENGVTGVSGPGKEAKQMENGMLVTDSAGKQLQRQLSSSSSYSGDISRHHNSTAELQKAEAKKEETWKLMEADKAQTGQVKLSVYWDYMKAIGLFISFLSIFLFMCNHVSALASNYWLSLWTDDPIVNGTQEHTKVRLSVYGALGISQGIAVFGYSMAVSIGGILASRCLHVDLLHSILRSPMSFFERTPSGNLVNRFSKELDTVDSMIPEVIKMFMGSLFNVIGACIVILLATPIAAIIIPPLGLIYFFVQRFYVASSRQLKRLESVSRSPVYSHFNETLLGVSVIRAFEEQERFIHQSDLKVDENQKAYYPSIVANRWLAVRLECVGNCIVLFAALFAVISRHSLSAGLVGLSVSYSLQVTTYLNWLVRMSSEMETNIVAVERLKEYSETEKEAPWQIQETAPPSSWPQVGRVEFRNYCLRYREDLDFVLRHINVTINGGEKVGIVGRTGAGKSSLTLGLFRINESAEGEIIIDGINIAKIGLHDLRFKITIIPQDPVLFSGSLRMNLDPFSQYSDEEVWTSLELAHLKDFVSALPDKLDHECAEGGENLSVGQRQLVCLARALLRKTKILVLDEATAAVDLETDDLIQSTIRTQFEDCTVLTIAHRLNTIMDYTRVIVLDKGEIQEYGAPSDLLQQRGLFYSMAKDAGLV
Sequence of UniProt P20815 (whole entry, looked up): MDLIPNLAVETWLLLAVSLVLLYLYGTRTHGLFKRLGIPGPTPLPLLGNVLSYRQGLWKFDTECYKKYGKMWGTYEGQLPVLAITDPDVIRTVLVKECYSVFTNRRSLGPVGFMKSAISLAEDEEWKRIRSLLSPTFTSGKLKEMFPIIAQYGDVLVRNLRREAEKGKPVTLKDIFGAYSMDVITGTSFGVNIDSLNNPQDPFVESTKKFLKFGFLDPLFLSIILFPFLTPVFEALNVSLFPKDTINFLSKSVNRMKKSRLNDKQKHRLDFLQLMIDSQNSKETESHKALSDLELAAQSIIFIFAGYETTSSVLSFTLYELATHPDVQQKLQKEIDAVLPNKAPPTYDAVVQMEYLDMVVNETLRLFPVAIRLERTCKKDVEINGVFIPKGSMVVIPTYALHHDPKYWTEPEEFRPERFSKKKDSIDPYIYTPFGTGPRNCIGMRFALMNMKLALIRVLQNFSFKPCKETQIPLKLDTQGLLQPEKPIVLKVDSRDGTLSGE

Cc1ccc(OCC(=O)N(Cc2cccs2)c2ccn[nH]2)cc1 — inhibition (CYP2C9; enzyme activity, inhibitor, mass spectrometry; human, liver microsomes; 10 µM): 12%
CO.COc1ccc2c(c1)c(CC(=O)[O-])c(C)n2C(=O)c1ccc(Cl)cc1.COc1ccc2c(c1)c(CC(=O)[O-])c(C)n2C(=O)c1ccc(Cl)cc1.O.[Co+2].c1ccc(Nc2ccccn2)nc1 — cathodic peak potential (calf thymus DNA; cyclic voltammetry; DMSO/buffer; Co(II)/Co(I) couple, with DNA): -677 mV
NCCCC[C@@H]1NC(=O)[C@H](Cc2ccccc2)NC(=O)[C@H](Cc2ccc(O)cc2)NC(=O)[C@H](CO)NC(=O)[C@H](CC(N)=O)NC1=O — relative potency (Hsp90 C-terminal domain-Cyp40 interaction; protein interaction, inhibitor; relative to: Kawakami peptide over compound IC50): > 10 fold
CC(C)(C)ONc1nc(Nc2ccnc(C(F)(F)F)c2)nc(-c2cccc(C(F)(F)F)n2)n1 — tumour Cmax to IC50 ratio (IDH2 R140Q; female Balb/cA nude mice xenograft; oral, 54.14 mg/kg; relative to: tumour Cmax over in vitro IC50): 214 fold
C=CC(=O)Nc1cc(Nc2nccc(-c3cn(C)c4ccccc34)n2)c(OCC(F)(F)F)nc1N(C)CCN(C)C — activity vs control (CYP2C19; enzyme activity, inhibitor; human, liver microsomes; 3.33 µM): 110%
[64Cu+2].c1ccc(CNCc2ccc(CN3CCCN4CCNCCCN(CC4)CC3)cc2)nc1 — tissue uptake (C-X-C chemokine receptor type 4 (CXCR4, Homo sapiens, UniProt P61073); NOD/SCID mice, U87 xenografts, U87-stb-CXCR4 tumour; 90 min post-injection): 18.6 ± 2.29 %ID/g
CC(C)Cn1c(SCC(=O)N2CCc3ccccc3C2)nc2cc(Cl)ccc2c1=O — inhibition (CYP2C9; enzyme activity, inhibitor, fluorescence; insect cell microsomes; 10 µM): 102%
NCC(=O)N1CCC[C@H]1C(=O)N1C[C@H](O)C[C@H]1C(=O)O — ΔS (iron(III) ion; complex formation, Van't Hoff plot; aqueous 0.15 M NaCl; MAH−3 complex species): -1.68 kJ/mol/K
COC(=O)[C@H](Cc1ccccc1)NC(=O)[C@H](Cc1ccccc1)NC(=O)CCC(=O)N[C@@H](Cc1ccccc1)C(=O)N[C@@H](Cc1ccccc1)C(=O)OC — remaining fluorescence (pronase (Streptomyces griseus); proteolytic degradation, fluorescence; PBS; 2 mg/mL, 12 h, pH 7.2, 25 °C, self-assembled structures, together with: pronase 5 mg/mL): ~50%
O=S(=O)([O-])CCCOCC1(COCCCS(=O)(=O)[O-])CSCCCSCC(COCCCS(=O)(=O)[O-])(COCCCS(=O)(=O)[O-])CSCCCSC1.[Na+].[Na+].[Na+].[Na+] — half-wave potential (Cu(II)/Cu(I) complex; cyclic voltammetry; pH 5.0, 0.1 M KClO4): 0.729 V vs SHE
C=C1CCC(O)CC1=CC=C1CCCC2(C)C1CCC2C(C)(C)O (centres unmarked) — number of products (25-hydroxyvitamin D-1 alpha hydroxylase, mitochondrial; substrate; phospholipid vesicles; 1 h, 0.025 mol per mol phospholipid, 0.8 µM enzyme): 1
COc1ccc2[nH]c([S+]([O-])Cc3ncc(C)c(OC)c3C)nc2c1 (centres unmarked) — AUC (CYP2C19; human, plasma; oral, dose not given, day 12, together with: fluoxetine): 8.5 ± 3.6 µM·h
[64Cu+2].c1cnc(CNCc2ccc(CN3CCCN4CCNCCCN(CC4)CC3)cc2)nc1 — tissue uptake (CXCR4; NOD/SCID mouse, U87 and U87-stb-CXCR4 xenografts, kidney; iv, 30 min, ex vivo): 30.7 ± 1.51 %ID/g
[2H]c1c(NS(C)(=O)=O)c([2H])c2c(C(=O)c3ccc(OCCCN(CCCC)CCCC)cc3)c(CCCC)oc2c1[2H] — KI (Cytochrome P450 3A5 (CYP3A5, Homo sapiens, UniProt P20815); inactivator; recombinant enzyme; together with: rivaroxaban substrate): 2.91 ± 0.97 µM
CC(=O)OCCc1cc(O)c(O)c(-c2cc(CCOC(C)=O)cc(O)c2O)c1 — inhibition (ABCC1; calcein-AM efflux; 10 µM; relative to: verapamil 30 µM): 2.5 ± 2%
C=C1CCC(O)CC1=CC=C1CCCC2(C)C1CCC2C(C)(O)c1ccccc1 (centres unmarked) — number of products (25-hydroxyvitamin D-1 alpha hydroxylase, mitochondrial; substrate; phospholipid vesicles; 1 h, 0.025 mol per mol phospholipid, 0.8 µM enzyme): 1
OCCc1ccc(O)c(-c2cc(CCO)ccc2O)c1 — inhibition (ABCC1; calcein-AM efflux; 10 µM; relative to: verapamil 30 µM): 1.7 ± 2%
CCn1cc(-c2ccnc(Nc3ccc(N4CCNCC4)cc3)n2)c(-c2cccnc2)n1 — inhibition (CYP2C19; 10 µM, highest among CYP isoforms): ≤ 22%
CC(=O)OCCc1ccc(O)c(-c2cc(CCOC(C)=O)ccc2O)c1 — inhibition (ABCC1; calcein-AM efflux; 50 µM; relative to: verapamil 30 µM): 9 ± 5.8%
O=C(O)C(O)Cc1ccc(O)c(O)c1 (centres unmarked) — CLint ratio (sulfotransferases, rat; sulfation, substrate; rat intestine over liver cytosol; pH 7.4, together with: PAPS; relative to: rat liver cytosol): 18%

For quick reference, copied from above:
CC(=O)OCCc1cc(O)c(O)c(-c2cc(CCOC(C)=O)cc(O)c2O)c1 — inhibition (ABCC1; calcein-AM efflux; 10 µM; relative to: verapamil 30 µM): 2.5 ± 2%
